Measured values pooled from the literature.
Each line is one published result; not all experiments were run side by side. ± gives the spread as reported.
CYP2C8: Cytochrome P450 2C8 (CYP2C8, Homo sapiens, UniProt P10632)
UniProt P10632, sequence (whole entry, looked up): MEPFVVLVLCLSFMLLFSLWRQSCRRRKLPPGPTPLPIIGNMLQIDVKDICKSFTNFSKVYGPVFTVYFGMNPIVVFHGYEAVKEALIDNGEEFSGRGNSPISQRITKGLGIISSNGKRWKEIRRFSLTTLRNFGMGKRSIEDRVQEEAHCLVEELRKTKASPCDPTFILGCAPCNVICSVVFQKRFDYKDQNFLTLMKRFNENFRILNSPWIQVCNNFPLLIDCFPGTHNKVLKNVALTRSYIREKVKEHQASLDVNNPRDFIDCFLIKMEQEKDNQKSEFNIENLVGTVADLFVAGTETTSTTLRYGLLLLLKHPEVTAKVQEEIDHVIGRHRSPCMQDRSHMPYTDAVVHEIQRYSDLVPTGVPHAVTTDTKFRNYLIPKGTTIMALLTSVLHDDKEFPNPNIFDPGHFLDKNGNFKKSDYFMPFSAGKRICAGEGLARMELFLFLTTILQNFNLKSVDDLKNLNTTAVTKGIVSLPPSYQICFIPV
CYP2C19: Cytochrome P450 2C19 (CYP2C19, Homo sapiens, UniProt P33261)
CYP2C9: Cytochrome P450 2C9 (CYP2C9, Homo sapiens, UniProt P11712)
UniProt P11712, sequence (whole entry, looked up): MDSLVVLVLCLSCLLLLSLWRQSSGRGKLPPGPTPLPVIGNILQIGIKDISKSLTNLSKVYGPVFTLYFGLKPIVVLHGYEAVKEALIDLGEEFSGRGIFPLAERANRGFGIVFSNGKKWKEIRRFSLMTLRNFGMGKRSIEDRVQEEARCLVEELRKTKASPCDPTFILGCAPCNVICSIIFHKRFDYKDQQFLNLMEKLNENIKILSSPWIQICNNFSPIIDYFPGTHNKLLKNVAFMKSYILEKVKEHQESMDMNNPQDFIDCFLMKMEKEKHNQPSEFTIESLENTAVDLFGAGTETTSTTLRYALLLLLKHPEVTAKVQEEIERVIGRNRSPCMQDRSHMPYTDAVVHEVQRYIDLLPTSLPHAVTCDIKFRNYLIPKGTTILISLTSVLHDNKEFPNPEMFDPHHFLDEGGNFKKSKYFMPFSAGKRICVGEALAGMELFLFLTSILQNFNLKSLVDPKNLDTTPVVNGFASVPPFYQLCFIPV
ABCB1: ATP-dependent translocase ABCB1 (ABCB1, Homo sapiens, UniProt P08183)
UniProt P08183, sequence (whole entry, looked up): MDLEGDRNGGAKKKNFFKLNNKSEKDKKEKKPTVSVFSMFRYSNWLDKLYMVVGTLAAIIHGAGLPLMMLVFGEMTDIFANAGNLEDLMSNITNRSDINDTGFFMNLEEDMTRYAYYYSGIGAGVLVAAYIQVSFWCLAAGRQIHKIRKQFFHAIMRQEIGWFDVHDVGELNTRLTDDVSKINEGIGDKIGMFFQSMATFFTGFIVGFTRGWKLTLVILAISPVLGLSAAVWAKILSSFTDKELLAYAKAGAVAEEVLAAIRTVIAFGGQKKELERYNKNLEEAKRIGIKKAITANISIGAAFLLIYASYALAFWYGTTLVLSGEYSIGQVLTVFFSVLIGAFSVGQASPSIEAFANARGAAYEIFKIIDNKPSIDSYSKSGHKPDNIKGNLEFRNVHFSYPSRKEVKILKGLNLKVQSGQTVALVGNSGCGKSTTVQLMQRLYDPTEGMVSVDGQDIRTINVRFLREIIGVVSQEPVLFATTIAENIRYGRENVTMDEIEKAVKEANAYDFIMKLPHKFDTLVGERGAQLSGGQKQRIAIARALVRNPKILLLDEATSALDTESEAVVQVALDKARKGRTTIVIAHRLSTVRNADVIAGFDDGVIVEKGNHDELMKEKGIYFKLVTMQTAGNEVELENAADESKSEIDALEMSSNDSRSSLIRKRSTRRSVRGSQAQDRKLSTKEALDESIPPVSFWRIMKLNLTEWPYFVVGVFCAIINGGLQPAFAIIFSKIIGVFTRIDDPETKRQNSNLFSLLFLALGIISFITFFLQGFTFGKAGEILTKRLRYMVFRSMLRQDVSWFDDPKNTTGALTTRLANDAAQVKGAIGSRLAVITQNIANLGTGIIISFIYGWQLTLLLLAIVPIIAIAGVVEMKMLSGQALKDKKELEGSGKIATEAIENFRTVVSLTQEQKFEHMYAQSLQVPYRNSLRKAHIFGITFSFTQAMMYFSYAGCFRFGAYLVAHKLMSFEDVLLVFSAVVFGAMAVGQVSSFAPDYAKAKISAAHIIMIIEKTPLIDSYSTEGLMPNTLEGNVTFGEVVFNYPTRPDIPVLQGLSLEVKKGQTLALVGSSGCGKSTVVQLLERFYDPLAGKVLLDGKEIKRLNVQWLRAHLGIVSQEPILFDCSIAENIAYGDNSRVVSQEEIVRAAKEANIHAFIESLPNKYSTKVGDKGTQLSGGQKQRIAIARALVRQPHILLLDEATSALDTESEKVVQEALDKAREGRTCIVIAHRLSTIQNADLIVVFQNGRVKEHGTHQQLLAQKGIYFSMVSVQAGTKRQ
sspA: Glutamyl endopeptidase (sspA, Staphylococcus aureus, UniProt P0C1U8)
UniProt P0C1U8, sequence (whole entry, looked up): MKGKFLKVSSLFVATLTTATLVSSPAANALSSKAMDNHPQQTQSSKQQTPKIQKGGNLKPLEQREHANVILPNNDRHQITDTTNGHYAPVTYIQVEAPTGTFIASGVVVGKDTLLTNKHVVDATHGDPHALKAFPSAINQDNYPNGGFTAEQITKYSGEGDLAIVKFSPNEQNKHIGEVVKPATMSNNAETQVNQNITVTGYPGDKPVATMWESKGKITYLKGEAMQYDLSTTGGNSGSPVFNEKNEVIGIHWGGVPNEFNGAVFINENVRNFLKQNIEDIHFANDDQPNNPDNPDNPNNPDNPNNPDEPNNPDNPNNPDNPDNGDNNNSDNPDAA
UniProt O89049, sequence (whole entry, looked up): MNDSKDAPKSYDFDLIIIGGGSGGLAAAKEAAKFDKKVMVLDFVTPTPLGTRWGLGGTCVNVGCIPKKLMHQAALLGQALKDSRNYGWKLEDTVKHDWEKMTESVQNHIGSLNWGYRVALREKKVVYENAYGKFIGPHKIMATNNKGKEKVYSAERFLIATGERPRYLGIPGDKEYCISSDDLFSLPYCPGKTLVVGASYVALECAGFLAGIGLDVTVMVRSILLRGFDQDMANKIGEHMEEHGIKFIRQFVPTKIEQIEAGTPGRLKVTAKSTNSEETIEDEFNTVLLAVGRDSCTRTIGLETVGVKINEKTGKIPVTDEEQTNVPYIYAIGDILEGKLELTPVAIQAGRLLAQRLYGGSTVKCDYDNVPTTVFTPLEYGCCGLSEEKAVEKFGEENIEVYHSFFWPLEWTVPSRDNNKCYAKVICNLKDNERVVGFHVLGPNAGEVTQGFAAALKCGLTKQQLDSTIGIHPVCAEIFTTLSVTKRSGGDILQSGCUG
UniProt P61073, sequence (whole entry, looked up): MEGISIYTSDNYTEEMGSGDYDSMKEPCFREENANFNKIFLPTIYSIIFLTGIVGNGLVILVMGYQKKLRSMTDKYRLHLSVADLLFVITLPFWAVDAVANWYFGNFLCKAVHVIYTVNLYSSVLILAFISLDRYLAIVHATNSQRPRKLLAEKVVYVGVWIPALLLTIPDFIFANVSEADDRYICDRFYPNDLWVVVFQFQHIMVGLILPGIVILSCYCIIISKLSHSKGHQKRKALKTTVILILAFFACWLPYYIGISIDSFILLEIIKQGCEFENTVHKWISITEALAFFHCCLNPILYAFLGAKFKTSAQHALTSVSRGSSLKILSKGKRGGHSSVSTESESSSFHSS
UniProt P08684, sequence (whole entry, looked up): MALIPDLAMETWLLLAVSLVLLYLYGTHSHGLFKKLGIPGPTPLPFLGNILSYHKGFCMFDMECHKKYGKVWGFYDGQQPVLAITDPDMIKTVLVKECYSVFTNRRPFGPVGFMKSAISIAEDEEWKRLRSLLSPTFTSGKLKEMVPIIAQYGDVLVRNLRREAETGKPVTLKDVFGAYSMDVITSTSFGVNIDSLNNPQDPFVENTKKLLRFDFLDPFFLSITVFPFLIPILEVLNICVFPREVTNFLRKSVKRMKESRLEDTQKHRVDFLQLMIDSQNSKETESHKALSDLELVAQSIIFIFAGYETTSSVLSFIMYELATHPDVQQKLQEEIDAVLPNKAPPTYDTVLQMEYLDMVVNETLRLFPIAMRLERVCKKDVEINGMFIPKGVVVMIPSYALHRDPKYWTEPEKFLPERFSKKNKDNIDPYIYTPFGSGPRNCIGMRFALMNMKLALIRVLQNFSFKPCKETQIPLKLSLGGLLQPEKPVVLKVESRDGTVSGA
UniProt P81425, sequence (whole entry, looked up): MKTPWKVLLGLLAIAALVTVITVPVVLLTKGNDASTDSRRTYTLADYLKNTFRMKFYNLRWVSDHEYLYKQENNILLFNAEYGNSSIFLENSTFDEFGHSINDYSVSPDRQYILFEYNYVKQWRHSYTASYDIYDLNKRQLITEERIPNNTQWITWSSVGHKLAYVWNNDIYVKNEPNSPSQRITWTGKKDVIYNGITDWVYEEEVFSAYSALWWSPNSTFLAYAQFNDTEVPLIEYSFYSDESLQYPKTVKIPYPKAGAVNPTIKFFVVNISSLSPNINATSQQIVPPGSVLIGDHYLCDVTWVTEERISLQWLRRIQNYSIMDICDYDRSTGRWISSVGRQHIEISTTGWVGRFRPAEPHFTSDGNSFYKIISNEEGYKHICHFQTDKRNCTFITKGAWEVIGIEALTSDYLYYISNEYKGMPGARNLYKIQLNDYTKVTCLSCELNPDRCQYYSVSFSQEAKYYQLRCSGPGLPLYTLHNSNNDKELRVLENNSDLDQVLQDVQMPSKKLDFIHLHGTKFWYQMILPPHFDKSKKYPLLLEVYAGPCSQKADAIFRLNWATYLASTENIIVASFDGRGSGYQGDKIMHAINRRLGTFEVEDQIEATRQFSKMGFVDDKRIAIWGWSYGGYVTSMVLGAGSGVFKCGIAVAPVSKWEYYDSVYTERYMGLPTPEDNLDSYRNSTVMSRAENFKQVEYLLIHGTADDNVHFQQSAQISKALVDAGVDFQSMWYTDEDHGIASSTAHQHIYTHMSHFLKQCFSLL
UniProt Q06520, sequence (whole entry, looked up): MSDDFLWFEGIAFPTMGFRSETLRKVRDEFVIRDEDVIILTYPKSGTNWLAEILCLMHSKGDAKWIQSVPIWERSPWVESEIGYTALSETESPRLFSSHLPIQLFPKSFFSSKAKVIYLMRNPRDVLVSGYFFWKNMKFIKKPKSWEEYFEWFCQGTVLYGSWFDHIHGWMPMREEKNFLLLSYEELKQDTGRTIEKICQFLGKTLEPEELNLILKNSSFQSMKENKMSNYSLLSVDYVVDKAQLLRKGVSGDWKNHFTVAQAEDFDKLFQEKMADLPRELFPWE

Structure (SMILES) | target | test | test system | conditions | scale | measurement | result
O=C1Cc2cc(CCN3CCN(C4=NS(=O)(=O)c5ccccc54)CC3)c(Cl)cc2N1 | CYP2C8 | – | human liver microsomes | 2 µM, pH 7.4, together with: paclitaxel | – | inhibition | < 0%
C=CC(=O)Nc1cc(Nc2nccc(-c3cn(C)c4ccccc34)n2)c(OCC(F)(F)F)nc1N(C)CCN(C)C | CYP2C8 | enzyme activity, inhibitor | human, liver microsomes | 3.33 µM | – | activity vs control | 102%
CC[C@@H]1CN2CCc3c([nH]c4cccc(OC)c34)[C@@H]2C[C@@H]1/C(=C\OC)C(=O)OC | CYP2C19 | substrate | recombinant human enzyme | 2 µM, 60 min, pH 7.4 | – | remaining substrate | 77%
Cn1cc(-c2cccc(CN3CCC4(CC3)COc3c4ccc4c3CN([C@H]3CCC(=O)NC3=O)C4=O)c2)cn1 | Cytochrome P450 3A4 (CYP3A4, Homo sapiens, UniProt P08684) | enzyme activity, inhibitor | – | – | – | IC50 | > 10 µM
CN1C(=O)[C@@H](Cc2ccc(O)cc2)NC(=O)CNC(=O)[C@H](Cc2ccc3ccccc3c2)NC(=O)[C@H](CCCNC(=N)N)NC(=O)[C@H]1CCCNC(=O)c1ccc(CNC(=O)CN2CCN(CC(=O)O)CCN(CC(=O)O)CCN(CC(=O)O)CC2)cc1 [gallium-68 labelled] | CXCR4 (Homo sapiens, UniProt P61073) | PET | human, FDG-avid maxillary focus (dental infection) | – | – | uptake | negative
Cc1ccc2nc(C)c(C(=O)NCc3ccc(C(F)(F)F)cc3)n2c1 | CYP2C9 | inhibitor | – | – | – | IC50 | 14.7 µM
CC(C)C[C@H](NC(=O)[C@H](C)N)C(=O)N[C@@H](Cc1ccc(O)cc1)C(=O)N[C@@H](CCCCN)C(=O)N[C@@H](CCCCN)C(=O)N[C@@H](CC(C)C)C(=O)N[C@@H](CC(C)C)C(=O)N[C@@H](CCCCN)C(=O)N[C@@H](CCCCN)C(=O)N[C@@H](CC(C)C)C(=O)N[C@@H](CC(C)C)C(=O)N[C@@H](CCCCN)C(=O)N[C@@H](CO)C(=O)N[C@@H](C)C(=O)N[C@@H](CCCCN)C(=O)N[C@@H](CCCCN)C(=O)N[C@@H](CC(C)C)C(=O)NCC(=O)O | Escherichia coli OmpT | substrate | E. coli BL21 expressing ompT, PBS | 2 µg/µL, room temperature | – | time to cleavage | ≤ 2 min
C[C@]12CC[C@H](O)CC1CCC1C2[C@H](O)C(=O)[C@]2(C)[C@@H](c3ccc(=O)oc3)CC[C@]12O (some centres unmarked) | SULT2A1 (Homo sapiens, UniProt Q06520) | substrate | human brain cytosol | pH 7.4 | – | sulfation rate | 0.023 pmol/min/mg protein
CNC(=O)Oc1cc(C)c(S(C)(=O)=O)c(C)c1 | CYP2C9 | inhibitor | human liver microsomes | 10 µM, pH 7.4, together with: diclofenac | – | inhibition | 5.31%
CC[C@H](C)[C@H](NC(=O)[C@H](Cc1ccccc1)NC(=O)[C@H](CCC(=O)O)NC(=O)[C@H](CCCCN)NC(=O)[C@H](C)NC(=O)[C@H](C)NC(=O)[C@H](CCC(N)=O)NC(=O)CNC(=O)[C@H](CCC(=O)O)NC(=O)[C@H](CC(C)C)NC(=O)[C@H](Cc1ccc(O)cc1)NC(=O)[C@H](CO)NC(=O)[C@H](CO)NC(=O)[C@@H](NC(=O)[C@H](CC(=O)O)NC(=O)[C@H](CO)NC(=O)[C@@H](NC(=O)[C@H](Cc1ccccc1)NC(=O)[C@@H](NC(=O)CNC(=O)[C@H](CCC(=O)O)NC(=O)[C@H](C)NC(=O)[C@@H](N)Cc1c[nH]cn1)[C@@H](C)O)[C@@H](C)O)C(C)C)C(=O)N[C@@H](C)C(=O)N[C@@H](Cc1c[nH]c2ccccc12)C(=O)N[C@@H](CC(C)C)C(=O)N[C@H](C(=O)N[C@@H](CCCCN)C(=O)NCC(=O)N[C@@H](CCCNC(=N)N)C(N)=O)C(C)C | Dipeptidyl peptidase 4 (Bos taurus, UniProt P81425) | GLP1R CRE-luciferase | DMEM with 10% FBS | 100 nM, 37 °C, together with: diprotin A 0.2 mM | – | stability duration | > 72 h
O=C(CN1CCN(c2cc3c(cc2F)c(=O)c(C(=O)O)cn3C2CC2)CC1)Nc1ccc(Cl)cc1 | ABCB1 | inhibitor, refers to: Oregon Green paclitaxel | LLC-PK1 overexpressing ABCB1 | 4 µM, together with: Oregon Green paclitaxel 400 nM | – | intracellular accumulation | increased
CCCS(=O)(=O)c1ccc2[nH]c(NC(=O)OC)nc2c1 | CYP2C8 | – | human liver microsomes | 10 µM, pH 7.4, together with: paclitaxel | – | inhibition | < 0%
Cc1ccc(C[C@H](NC(=O)CN)C(=O)N[C@@H](CCCCN)C(=O)N[C@@H](CCCNC(=N)N)C(=O)N[C@H](CC(C)C)C(=O)N[C@H](C(=O)N[C@@H](CCC(N)=O)C(=O)N[C@@H](CCCNC(=N)N)C(=O)N[C@H](CC(C)C)C(=O)N[C@@H](CCCCN)C(=O)N[C@@H](CC(=O)O)C(=O)N[C@@H](Cc2c[nH]c3ccccc23)C(=O)N[C@H](CC(C)C)C(=O)N[C@@H](CCCNC(=N)N)C(=O)N[C@@H](CCCCN)C(=O)N[C@@H](CC(C)C)C(=O)N[C@H](C(N)=O)C(C)C)C(C)C)cc1 | sspA | substrate, SDS-PAGE | – | 24 h, pH 7.4, 37 °C | – | proteolytic stability | stable
Cc1cn2c(C(=O)NCc3ccc(C(F)(F)F)cc3)c(C)nc2s1 | CYP2C19 | inhibitor | – | – | – | IC50 | 18.7 µM
CC(C)(O)c1ccccc1CC[C@H](c1cccc(/C=C/c2ccc3ccc(Cl)cc3n2)c1)[S+]([O-])CC1(CC(=O)O)CC1 (some centres unmarked) | CYP2C9 | inhibitor | human liver microsomes | 2 µM, pH 7.4, together with: diclofenac | – | inhibition | 33.1%
CCn1c(-c2ccc(OC)cc2)c(-c2ccc(OC)cc2)n(CC)c1=[Se+][Au-][P+](CC)(CC)CC.Cl | Txnrd1 (Rattus norvegicus, UniProt O89049) | enzyme activity, inhibitor | – | – | – | IC50 | 0.0147 µM
CNC(=O)Oc1cc(C)c([S+](C)[O-])c(C)c1 (centres unmarked) | CYP2C9 | inhibitor | human liver microsomes | 10 µM, pH 7.4, together with: diclofenac | – | inhibition | 4.82%
[64Cu+2].c1ccc(CNCc2ccc(CN3CCCNCCNCCCNCC3)cc2)nc1 | CXCR4 | – | NOD/SCID mouse, U87 and U87-stb-CXCR4 xenografts, lungs | iv, 90 min, no blocking dose, ex vivo | – | tissue uptake | 3.04 ± 0.17 %ID/g
CCN(CC)CCOc1ccc(-c2nnn(Cc3ccc(OC)cc3)c2N)cc1 | CYP2C19 | enzyme activity, inhibitor | – | concentration not given | – | inhibition | no inhibition
C=CCc1ccc(O)c(-c2cc(CC=C)cc(O)c2O)c1 | ABCB1 | rhodamine 123 efflux | – | 10 µM | relative to: GF120918 0.5 µM | inhibition | -0.3 ± 2%
N=C(N)NCCC[C@H](NC(=O)[C@H](Cc1c[nH]c2ccccc12)NC(=O)[C@H](CCCCN)NC(=O)[C@H](CCCNC(=N)N)NC(=O)[C@H](Cc1c[nH]c2ccccc12)NC(=O)[C@H](CCCCN)NC(=O)[C@H](CCCNC(=N)N)NC(=O)[C@H](Cc1c[nH]c2ccccc12)NC(=O)[C@H](CCCCN)NC(=O)[C@H](CCCNC(=N)N)NC(=O)[C@@H](N)Cc1c[nH]c2ccccc12)C(=O)N[C@@H](CCCCN)C(N)=O | pepsin | RP-HPLC | – | 6 h, 37 °C | – | remaining peptide | < 10%
CC(C)(O)c1ccccc1CC[C@H](c1cccc(/C=C/c2ccc3ccc(Cl)cc3n2)c1)S(=O)(=O)CC1(CC(=O)O)CC1 | CYP2C9 | inhibitor | human liver microsomes | 10 µM, pH 7.4, together with: diclofenac | – | inhibition | 91.1%
CC[C@H](C)[C@H](NC(=O)[C@H](CCCNC(=N)N)NC(=O)[C@H](CCC(N)=O)NC(=O)[C@@H](NC(=O)[C@@H](NC(=O)[C@H](CCCNC(=N)N)NC(=O)[C@H](CCCCN)NC(=O)[C@H](Cc1ccccc1)NC(=O)CN)[C@@H](C)CC)C(C)C)C(=O)N[C@@H](CCCCN)C(=O)N[C@@H](CC(=O)O)C(=O)N[C@@H](Cc1ccccc1)C(=O)N[C@@H](CC(C)C)C(=O)N[C@@H](CCCNC(=N)N)C(=O)N[C@@H](CC(N)=O)C(=O)N[C@@H](CC(C)C)C(=O)N[C@H](C(N)=O)C(C)C | sspA | substrate, tricine SDS-PAGE | – | pH 8, 37 °C, together with: peptide:protease 40:1 | – | stability time | < 24 h
